Assay results collected from several papers.
Each line is one published result; not all experiments were run side by side. Values joined by “and” are separate records of one study, mostly repeats; a detail may differ. ± marks the error that the study gave.
B1: AKAP8L; sequence looked up; chain MSYTGFVQGSETTLQSTYSDTSAQPTCDYGYGTWNSGTNRGYEGYGYGYGYGQDNTTNYGYGMATSHSWEMPSSDTNANTSASGSASADSVLSRINQRLDMVPHLETDMMQGGVYGSGGERYDSYESCDSRAVLSERDLYRSGYDYSELDPEMEMAYEGQYDAYRDQFRMRGNDTFGPRAQGWARDARSGRPMASGYGRMWEDPMGARGQCMSGASRLPSLFSQNIIPEYGMFQGMRGGGAFPGGSRFGFGFGNGMKQMRRTWKTWTTADFRTKKKKRKQGGSPDEPDSKATRTDCSDNSDSDNDEGTEGEATEGLEGTEAVEKGSRVDGEDEEGKEDGREEGKEDPEKGALTTQDENGQTKRKLQAGKKSQDKQKKRQRDRMVERIQFVCSLCKYRTFYEDEMASHLDSKFHKEHFKYVGTKLPKQTADFLQEYVTNKTKKTEELRKTVEDLDGLIQQIYRDQDLTQEIAMEHFVKKVEAAHCAACDLFIPMQFGIIQKHLKTMDHNRNRRLMMEQSKKSSLMVARSILNNKLISKKLERYLKGENPFTDSPEEEKEQEEAEGGALDEGAQGEAAGISEGAEGVPAQPPVPPEPAPGAVSPPPPPPPEEEEEGAVPLLGGALQRQIRGIPGLDVEDDEEGGGGAP
B2: RNA helicase DHX15; sequence looked up; chain MSKRHRLDLGEDYPSGKKRAGTDGKDRDRDRDREDRSKDRDRERDRGDREREREKEKEKELRASTNAMLISAGLPPLKASHSAHSTHSAHSTHSTHSAHSTHAGHAGHTSLPQCINPFTNLPHTPRYYDILKKRLQLPVWEYKDRFTDILVRHQSFVLVGETGSGKTTQIPQWCVEYMRSLPGPKRGVACTQPRRVAAMSVAQRVADEMDVMLGQEVGYSIRFEDCSSAKTILKYMTDGMLLREAMNDPLLERYGVIILDEAHERTLATDILMGVLKEVVRQRSDLKVIVMSATLDAGKFQIYFDNCPLLTIPGRTHPVEIFYTPEPERDYLEAAIRTVIQIHMCEEEEGDLLLFLTGQEEIDEACKRIKREVDDLGPEVGDIKIIPLYSTLPPQQQQRIFEPPPPKKQNGAIGRKVVVSTNIAETSLTIDGVVFVIDPGFAKQKVYNPRIRVESLLVTAISKASAQQRAGRAGRTRPGKCFRLYTEKAYKTEMQDNTYPEILRSNLGSVVLQLKKLGIDDLVHFDFMDPPAPETLMRALELLNYLAALNDDGDLTELGSMMAEFPLDPQLAKMVIASCDYNCSNEVLSITAMLSVPQCFVRPTEAKKAADEAKMRFAHIDGDHLTLLNVYHAFKQNHESVQWCYDNFINYRSLMSADNVRQQLSRIMDRFNLPRRSTDFTSRDYYINIRKALVTGYFMQVAHLERTGHYLTVKDNQVVQLHPSTVLDHKPEWVLYNEFVLTTKNYIRTCTDIKPEWLVKIAPQYYDMSNFPQCEAKRQLDRIIAKLQSKEYSQY
B3: ABCF2 protein; sequence looked up; chain MPSDLAKKKAAKKKEAAKARQRPRKGHEENGDVVTEPQVAEKNEANGRETTEVDLLTKELEDFEMKKAAARAVTGVLASHPNSTDVHIINLSLTFHGQELLSDTKLELNSGRRYGLIGLNGIGKSMLLSAIGKREVPIPEHIDIYHLTREMPPSDKTPLHCVMEVDTERAMLEKEAERLAHEDAECEKLMELYERLEELDADKAEMRASRILHGLGFTPAMQRKKLKDFSGGWRMRVALARALFIRPFMLLLDEPTNHLDLDACVWLEEELKTFKRILVLVSHSQDFLNGVCTNIIHMHNKKLKYYTGNYDQYVKTRLELEENQMKRFHWEQDQIAHMKNYIARFGHGSAKLARQAQSKEKTLQKMMASGLTERVVSDKTLSFYFPPCGKIPPPVIMVQNVSFKYTKDGPCIYNNLEFGIDLDTRVALVGPNGAGKSTLLKLLTGELLPTDGMIRKHSHVKIGRYHQHLQEQLDLDLSPLEYMMKCYPEIKEKEEMRKIIGRYGLTGKQQVSPIRNLSDGQKCRVCLAWLAWQNPHMLFLDEPTNHLDIETIDALADAINEFEGGMMLVSHDFRLIQQVAQEIWVCEKQTITKWPGDILAYKEHLKSKLVDEEPQLTKRTHNV
B4: caprin-1; sequence looked up; chain PSATSHSGSGSKSSGPPPPSGSSGSEAAAGAGAAAPASQHPATGTGAVQTEAMKQILGVIDKKLRNLEKKKGKLDDYQERMNKGERLNQDQLDAVSKYQEVTNNLEFAKELQRSFMALSQDIQKTIKKTARREQLMREEAEQKRLKTVLELQYVLDKLGDDEVRTDLKQGLNGVPILSEEELSLLDEFYKLVDPERDMSLRLNEQYEHASIHLWDLLEGKEKPVCGTTYKVLKEIVERVFQSNYFDSTHNHQNGLCEEEEAASAPAVEDQVPEAEPEPAEEYTEQSEVESTEYVNRQFMAETQFTSGEKEQVDEWTVETVEVVNSLQQQPQAASPSVPEPHSLTPVAQADPLVRRQRVQDLMAQMQGPYNFIQDSMLDFENQTLDPAIVSAQPMNPTQNMDMPQLVCPPVHSESRLAQPNQVPVQPEATQVPLVSSTSEGYTASQPLYQPSHATEQRPQKEPIDQIQATISLNTDQTTASSSLPAASQPQVFQAGTSKPLHSSGINVNAAPFQSMQTVFNMNAPVPPVNEPETLKQQNQYQASYNQSFSSQPHQVEQTELQQEQLQTVVGTYHGSPDQSHQVTGNHQQPPQQNTGFPRSNQPYYNSRGVSRGGSRGARGLMNGYRGPANGFRGGYDGYRPSFSNTPNSGYTQSQFSAPRDYSGYQRDGYQQNFKRGSGQSGPRGAPRGRGGPPRPNRGMPQMNTQQVN
B5: CCT7; sequence looked up; chain MMPTPVILLKEGTDSSQGIPQLVSNISACQVIAEAVRTTLGPRGMDKLIVDGRGKATISNDGATILKLLDVVHPAAKTLVDIAKSQDAEVGDGTTSVTLLAAEFLKQVKPYVEEGLHPQIIIRAFRTATQLAVNKIKEIAVTVKKADKVEQRKLLEKCAMTALSSKLISQQKAFFAKMVVDAVMMLDDLLQLKMIGIKKVQGGALEDSQLVAGVAFKKTFSYAGFEMQPKKYHNPKIALLNVELELKAEKDNAEIRVHTVEDYQAIVDAEWNILYDKLEKIHHSGAKVVLSKLPIGDVATQYFADRDMFCAGRVPEEDLKRTMMACGGSIQTSVNALSADVLGRCQVFEETQIGGERYNFFTGCPKAKTCTFILRGGAEQFMEETERSLHDAIMIVRRAIKNDSVVAGGGAIEMELSKYLRDYSRTIPGKQQLLIGAYAKALEIIPRQLCDNAGFDATNILNKLRARHAQGGTWYGVDINNEDIADNFEAFVWEPAMVRINALTAASEAACLIVSVDETIKNPRSTVDAPTAAGRGRGRGRPH

DnaJ homolog DNAJA4  log2 fold change (peptide binding, SILAC pull-down; concentration not given; reference: non-acetylated over acetylated NIT1 peptide): 0.387
HVLVMSATRR  albumin (peptide, C57BL/6J mice, male, serum; subcutaneous osmotic pump, 3 mg/kg/day peptide basis, 8 weeks): 3 g/dL and 2.9 g/dL
heparin sodium  decreased neutrophil (healthy Chinese adult volunteers; continuous intravenous infusion, 8 IU/kg/h, 5 days): 75%
Polymyxin B  cystatin C level (mouse, serum; 20 mg/kg): 39.8 ng/mL
Polymyxin B  MIC (Escherichia coli; broth microdilution; E25 clinical isolate; 20 h): 0.5 µg/mL
RTLEDLLMGT  specific lysis (Ca-Ski (HLA-A2+ HPV+); 111In release; peptide; concentration not given, 16 h, E:T 25:1 IVS 5, together with: peptide-generated T-cell line): 49.6%
B1 (AKAP8L)  log2 fold change (peptide binding, SILAC pull-down; concentration not given; reference: non-acetylated over acetylated NIT1 peptide): -0.27
lead  viability (non-cancerous; CCK-8; 2.5 µM, 24 h, unit not given; reference: untreated control): 0.57
B2 (RNA helicase DHX15)  log2 fold change (peptide binding, SILAC pull-down; concentration not given; reference: non-acetylated over acetylated NIT1 peptide): 1.08
insulin human  fold change (item: CDK5R1 mRNA; uninfected mouse, brain; i.p., dose not given; reference: PBS): 1.2
CEMDGQCKRDLKCCMGMCGKSCVSPVKA  p38/β-actin ratio (p38 MAPK (mouse); Western blot; peptide, RAW264.7; 0.1 and 1 µg/mL): decreased
GWTLNSAGYLLGPHAVDNHRSFNDKHGFT-NH2 (C-amide)  colon length (peptide, Gnaq flox control mice, DSS colitis; ip, 3 µM, 2% DSS): 5.4 cm and 5.8 cm and 5.9 cm and 5.3 cm
KANPDVTLV  IC50 (Mamu-B*08301 MHC class I; peptide binding; peptide, Chinese rhesus macaque): > 20 µM
YMLDLQPET  specific lysis (ASPC1 (HLA-A2− HPV−); 111In release; peptide; concentration not given, 16 h, E:T 25:1, IVS 5, together with: peptide-generated T-cell line): 0.4%
B3 (ABCF2 protein)  log2 fold change (peptide binding, SILAC pull-down; concentration not given; reference: non-acetylated over acetylated NIT1 peptide): 1.55
GWTLNSAGYLLGPRRIDHLLMIKEMPIARGREEAPGA / YAVDNHRSFNDKHGFT-NH2 (C-amide)  colon length (Gnaq intestinal cKO mice, DSS colitis; ip, 3 µM, 2% DSS): 5.9 cm and 5.2 cm and 5.1 cm and 6 cm and 5.7 cm
CIAQDNCTG  IC50 (Mamu-A1*02601 MHC class I; peptide binding; peptide, Chinese rhesus macaque): > 20 µM
pertussis toxin  GFAP-positive area (astrogliosis, immunostaining; humanized UT (+/h+) mice, SAH model, meninges; dose not given; reference: total area): 1.71% and 2.01% and 2.45%
caspofungin  radial growth (Aspergillus fumigatus; solid minimal medium; 0.125 µg/mL, 4 days, unit not given; reference: untreated control): 0.369 and 0.366 and 0.343
Met-enkephalin-Arg-Phe  maximum possible effect (antinociception, hot plate; male ICR-CD1 mice; intracerebroventricular, 50 µg/animal, 60 min): 10.5% and 2.65% and -4.33% and 4.92% and 12.2% and -8.12% and -8.2% and 11%
hexaarginine  koff (PorA peptide pore; peptide binding, planar bilayer single-channel recording; 0.5 µM, pH 7.4, +10 mV, trans side, 150 mM KCl): 1430 ± 140 s⁻¹
BIRC3  log2 fold change (peptide binding, SILAC pull-down; concentration not given; reference: non-acetylated over acetylated NIT1 peptide): 5.12
aspterric acid  inhibition (hypocotyl length; Arabidopsis thaliana Col-0 seeds; 12.5 µg/mL, 7 days, dark): 95.2%
nonaarginine  koff (PorA peptide pore; peptide binding, planar bilayer single-channel recording; 0.5 µM, pH 7.4, +35 mV, trans side, 150 mM KCl): 2700 ± 300 s⁻¹
B4 (caprin-1)  log2 fold change (peptide binding, SILAC pull-down; concentration not given; reference: non-acetylated over acetylated NIT1 peptide): 0.675
(−)-antroquinonol A  IC50 (Hep3B; cytotoxicity, MTS; 72 h): 8 ± 1.2 µM
B5 (CCT7)  log2 fold change (peptide binding, SILAC pull-down; concentration not given; reference: non-acetylated over acetylated NIT1 peptide): 1.8
colistin  CFU relative to caspofungin alone (Aspergillus fumigatus; conidia; 80 µM, together with: caspofungin 0.2 µg/mL; reference: caspofungin alone): 1.23 and 0.904 and 0.369

A few entries again:
pertussis toxin  GFAP-positive area (astrogliosis, immunostaining; humanized UT (+/h+) mice, SAH model, meninges; dose not given; reference: total area): 1.71% and 2.01% and 2.45%
HVLVMSATRR  albumin (peptide, C57BL/6J mice, male, serum; subcutaneous osmotic pump, 3 mg/kg/day peptide basis, 8 weeks): 3 g/dL and 2.9 g/dL
DnaJ homolog DNAJA4  log2 fold change (peptide binding, SILAC pull-down; concentration not given; reference: non-acetylated over acetylated NIT1 peptide): 0.387
(−)-antroquinonol A  IC50 (Hep3B; cytotoxicity, MTS; 72 h): 8 ± 1.2 µM
